Measurements pooled from the literature.
Lines come from different studies, so protocols differ. Numbers after ± are the reported error.
Cell line: Jurkat

N#Cc1c(N)nc2c(c1-c1ccc(CO)o1)Cc1cccc(O)c1-2
IC50 (cell viability, CellTiter-Glo; no inhibition at 100 µM): > 100 µM

NC(=O)c1ccc(-c2ccccc2Cl)c2c3c([nH]c12)CC[C@H](N)C3
IC50 (cell growth or viability): 0.0422 µM

CN(C)Cc1nc(Nc2ccc(-c3cnc4cc(F)ccn34)c3c2C(=O)NC3)ccc1C1CCOC1 (stereo not drawn)
IC50 (measured: SLP76 phosphorylation; together with: anti-CD3): 0.041 µM

Cc1cc(C)cc(NC(=O)N(Cc2ccc(C(=O)NO)cc2)OCc2ccccc2)c1
IC50 (cell viability; 72 h): 4.68 ± 0.197 µM

COc1ccc2c(c1)Cc1c-2nc(N)c(C#N)c1-c1ccc(CO)o1
IC50 (cell growth or viability, ATP luminescence): 50.1 µM

O=S(=O)(c1ccc2c(c1)OCO2)n1cc(CCCCN2CCC(=C(c3ccc(F)c(F)c3)c3ccc(F)c(F)c3)CC2)nn1
IC50 (cell growth or viability, ATP luminescence; 48 h): 4.17 µM

CN1CCC(N[C@@H]2CCc3[nH]c4c(C(N)=O)ccc(-c5ccccc5Cl)c4c3C2)CC1
IC50 (cell growth or viability): 0.00937 µM

CO[C@@H](C[C@H]1C(C)=CC[C@@H]2[C@]3(C)C[C@H](O[C@@H]4O[C@@H](C)[C@H](OC(=O)c5cccc(O)c5)[C@@H](O)[C@H]4O)[C@@H](O)C(C)(C)[C@H]3CC[C@]21C)[C@H](N)C(=O)O
IC50 (cell growth or viability, CCK-8; 72 h): 1.17 µM

N#Cc1c(N)nc2c(c1-c1ccc(CO)o1)CCc1cc(O)ccc1-2
IC50 (cell growth or viability, ATP luminescence): 9.6 µM

CC(C)c1ccc(N(C)c2ccc3c(c2)OCC[C@H]3CNc2cnccc2C(=O)O)cc1
IC50 (cell growth or viability, ATP luminescence; 7 days): 0.00149 µM

CO[C@@H](C[C@H]1C(C)=CC[C@@H]2[C@]3(C)C[C@H](O[C@@H]4O[C@@H](C)[C@H](O)[C@@H](O)[C@H]4O)[C@@H](O)C(C)(C)[C@H]3CC[C@]21C)[C@H](N)C(=O)O
IC50 (cell growth or viability, CCK-8; 72 h): 5.66 µM

Cc1ccc(-c2c(C#N)c(N)nc3c2Cc2cc(O)ccc2-3)o1
IC50 (cell viability, CellTiter-Glo; no inhibition at 100 µM): > 100 µM

Repeated from above:
CN1CCC(N[C@@H]2CCc3[nH]c4c(C(N)=O)ccc(-c5ccccc5Cl)c4c3C2)CC1
IC50 (cell growth or viability): 0.00937 µM

Cc1cc(C)cc(NC(=O)N(Cc2ccc(C(=O)NO)cc2)OCc2ccccc2)c1
IC50 (cell viability; 72 h): 4.68 ± 0.197 µM
